{"data": "Experimental data from different studies", "note": "Compare with care: the assays were run in different laboratories. Several values in a cell are separate wells, animals, samples, runs or records."}
{"SMILES": "CCCCCC/C=C1\\C=C(C(F)(F)F)c2cc3c(cc21)OCCO3", "cell line": "MM1.S bortezomib-resistant", "test": "Western blot", "conditions": "0.5 µM, 8 h", "quantity": "Nrf2 stabilization", "value": "no effect"}
{"SMILES": "CCCCCCCCCCCCCCCCCCOc1ccccc1CC(=O)OCC[N+]1(C)CCOCC1", "cell line": "NSCLC panel (nine cell lines)", "conditions": "10 µM", "quantity": "mean growth inhibition", "value": "38.4%"}
{"SMILES": "COc1c(C)c(OS(=O)(=O)c2ccc3ccccc3c2)c(C)c(O)c1C(=O)/C=C/c1ccccc1", "cell line": "SH-SY5Y", "test": "SRB", "how to read": "reference: normal over SH-SY5Y IC50", "quantity": "selectivity index", "value": 1.86}
{"SMILES": "Cn1cc(-c2ccc(-c3cncc(Cl)c3N3CCC4(CCNC4=O)CC3)cc2)cn1", "cell line": "COLO 205", "test": "gene expression, microarray, item: LMNA mRNA", "conditions": "concentration not given, 2 h", "how to read": "reference: untreated cells", "quantity": "log2 fold change", "value": 1.91}
{"SMILES": "CCCCN1C[C@H](O)[C@@H](O)[C@@H](O)[C@H]1CO", "cell line": "sample H patient fibroblasts", "test": "Gb3 level lowering, LC-MS/MS, item: Gb3 d18:1/18:0", "conditions": "216 h", "quantity": "IC50", "value": "14.7 µM"}
{"SMILES": "CC(=O)O[C@@]12CO[C@@H]1C[C@H](O)[C@@]1(C)C(=O)[C@H](O)C3=C(C)[C@@H](OC(=O)[C@H](O)[C@@H](NC(=O)OC(C)(C)C)c4ccccc4)C[C@@](O)([C@@H](OC(=O)c4ccccc4)[C@H]21)C3(C)C", "cell line": "LNCaP C-81, compound-resistant", "test": "trypan blue exclusion", "conditions": "3 nM, 72 h", "quantity": "growth inhibition", "value": "< 15%"}
{"SMILES": "O=c1[nH]nc(OCCCc2ccc(Cl)cc2)c(NCc2cccnc2)c1Br", "cell line": "HEK-293T", "test": "RNA-seq GSEA, item: HALLMARK_HEDGEHOG_SIGNALING", "conditions": "concentration not given", "how to read": "direction not given", "quantity": "normalized enrichment score", "value": 1.24}
{"SMILES": "O=C1[C@H]2CCCN2[C@H](c2cccc3c2OCO3)N1c1ccc(Cl)c(Cl)c1 (racemic)", "cell line": "PC-12", "conditions": "10 µM", "quantity": "mutant huntingtin aggregates per cell", "value": "no effect"}
{"SMILES": "Clc1nc(NCc2ccco2)c2[nH]cnc2n1", "cell line": "iPSC-derived cardiomyocytes, GLA mutant", "conditions": "30 µM, 72 h", "how to read": "reference: untreated", "quantity": "Gb3 accumulation reduction", "value": "15.7%"}
{"SMILES": "O=C(/C=C/C=C/C=C/C1CCCCC1)NC1=C[C@@](O)(/C=C/C=C/C=C/C(=O)NC2=C(O)CCC2=O)[C@@H]2O[C@@H]2C1=O", "cell line": "SK-MEL3", "test": "cell growth, CellTiter-Glo", "conditions": "78 h", "quantity": "GI50", "value": "17.4 µM"}
{"SMILES": "O=c1ccn([C@@H]2O[C@H](CO)[C@@H](O)[C@H]2O)c(=O)[nH]1", "cell line": "activated human T cells", "system": "human", "conditions": "31.6 µM", "quantity": "T cell proliferation", "value": "104% and 111% and 109% and 99.4%"}
{"SMILES": "CC(C)NCC(O)c1ccc(O)c(O)c1 (stereo not shown)", "cell line": "mouse ventricular cardiomyocytes", "conditions": "dose not given, 0.283 s", "quantity": "sarcomere length", "value": "1.8 µm"}
{"SMILES": "Oc1cccc(-c2nc(N3CCOCC3)c3oc4ncccc4c3n2)c1", "cell line": "SNU-1040", "conditions": "0.33 µM, 72 h, 100% DMSO", "how to read": "reference: vehicle", "quantity": "cell growth", "value": "100%"}
{"SMILES": "[Cl-].[Cl-].[Os+2].c1cnc2c(c1)ccc1cccnc12.c1cnc2c(c1)ccc1cccnc12.c1cnc2c(c1)ccc1cccnc12", "cell line": "SK-MEL-28", "test": "cell growth, SRB", "conditions": "dark, 1% O2 hypoxia", "quantity": "TGI", "value": "253 µM"}
{"SMILES": "COc1cnc2cccc(N3CCc4c(cc(Cn5ccnc5C)cc4-c4cn(C)nc4C(F)(F)F)C3=O)c2c1", "cell line": "KURAMOCHI", "test": "cell growth, inhibitor", "conditions": "120 h", "quantity": "EC50", "value": "19.6 µM"}
{"SMILES": "CC[C@@H](C)[C@H]1NC(=O)[C@H](Cc2ccc(-c3ccccc3)cc2)NC(=O)[C@H](CC(C)C)NC(=O)[C@@H]2[C@@H](c3ccccc3)CCN2C(=O)[C@H](NC(=O)[C@@H](CCCNC(=N)N)NC(=O)[C@@H](CCCNC(=N)N)NC(C)=O)CSCSC[C@@H](C(=O)N[C@H](CCCNC(=N)N)C(=O)N[C@H](CCCNC(=N)N)C(N)=O)NC(=O)[C@H](C(C)C)NC(=O)[C@@H]2CCCN2C(=O)[C@H](CC(=O)O)NC(=O)[C@H](Cc2ccc(O)cc2)NC(=O)[C@@](C)(CO)NC1=O", "cell line": "AsPC-1", "test": "AlphaScreen, item: pERK", "conditions": "18 h", "quantity": "IC50", "value": "> 50 µM"}
{"SMILES": "COc1cccc2c1C(=O)c1c(O)c3c(c(O)c1C2=O)C[C@@](O)(C(=O)CO)C[C@@H]3O[C@H]1C[C@H](N)[C@H](O)[C@H](C)O1", "cell line": "HepG2", "test": "item: metallothionein protein", "conditions": "24 h, distribution mode 2", "quantity": "point of departure", "value": "0.219 µM"}
{"SMILES": "CCCCc1oc2ccc(NS(C)(=O)=O)cc2c1C(=O)c1ccc(OCCCN(CCCC)CCCC)cc1", "cell line": "human embryonic stem cell aggregates", "test": "mRNA level, microarray, item: DLL3", "conditions": "0.5 µM, 120 h", "how to read": "reference: untreated, down-regulated", "quantity": "fold change", "value": "1.9 fold"}
{"SMILES": "CCn1cc(-c2cc(Cn3ccoc3=N)cc3c2CCN([C@@H](C)c2cc(OC)ccn2)C3=O)c(C(F)(F)F)n1", "cell line": "SNU1", "test": "cell growth, inhibitor", "conditions": "120 h", "quantity": "EC50", "value": "0.25 µM"}
{"note": "Excerpt of the above:"}
{"SMILES": "CCCCN1C[C@H](O)[C@@H](O)[C@@H](O)[C@H]1CO", "cell line": "sample H patient fibroblasts", "test": "Gb3 level lowering, LC-MS/MS, item: Gb3 d18:1/18:0", "conditions": "216 h", "quantity": "IC50", "value": "14.7 µM"}
{"SMILES": "CC(=O)O[C@@]12CO[C@@H]1C[C@H](O)[C@@]1(C)C(=O)[C@H](O)C3=C(C)[C@@H](OC(=O)[C@H](O)[C@@H](NC(=O)OC(C)(C)C)c4ccccc4)C[C@@](O)([C@@H](OC(=O)c4ccccc4)[C@H]21)C3(C)C", "cell line": "LNCaP C-81, compound-resistant", "test": "trypan blue exclusion", "conditions": "3 nM, 72 h", "quantity": "growth inhibition", "value": "< 15%"}
{"SMILES": "O=c1[nH]nc(OCCCc2ccc(Cl)cc2)c(NCc2cccnc2)c1Br", "cell line": "HEK-293T", "test": "RNA-seq GSEA, item: HALLMARK_HEDGEHOG_SIGNALING", "conditions": "concentration not given", "how to read": "direction not given", "quantity": "normalized enrichment score", "value": 1.24}
